Results pooled from the literature.
± gives the spread as reported.
KCNN4/CALM1: KCNN4/CALM1 (Homo sapiens, UniProt O15554+P0DP23)
Nicotinic acetylcholine receptor alpha9/alpha10: Nicotinic acetylcholine receptor alpha9/alpha10 (Rattus norvegicus, UniProt P43144+Q9JLB5)
USP13 ZnF-UBD domain: Ubiquitin carboxyl-terminal hydrolase 13, ZnF-UBD domain (USP13, Homo sapiens, UniProt Q92995)

O=C1Nc2c(ccc(Cl)c2Cl)C1=NO
Hill coefficient (KCNN4/CALM1; ion current, activator, whole-cell patch clamp; HEK293; together with: 3 µM free calcium): 1

COc1cc(C(=O)NS(=O)(=O)c2ccccc2C)ccc1Cc1cn(C)c2ccc(NC(=O)OC3CCCC3)cc12
Hill coefficient (LRRC8A/LRRC8C (Homo sapiens, UniProt Q8IWT6+Q8TDW0, L134K/L136K); whole-cell patch clamp; HCT116 LRRC8-/- transfected; at +100 mV): 0.99

Cc1ccc(N(C)C(=O)/C=C/c2ccco2)cc1
Hill coefficient (Nicotinic acetylcholine receptor alpha9/alpha10; inhibitor; together with: ACh 100 µM): 1.6 ± 0.2

Cn1cc(-c2ccc(-c3cncc(Cl)c3N3CCC4(CCNC4=O)CC3)cc2)cn1
log2 fold change (COLO 205; gene expression, microarray, item: PCK2 mRNA; concentration not given, 6 h; relative to: untreated cells): -2.13

N=C(N)NC(=N)Nc1cccc(Cl)c1
Hill coefficient (5-hydroxytryptamine receptor 3A (Htr3a, Mus musculus, UniProt P23979); agonist-evoked current, agonist, two-electrode voltage clamp; Xenopus oocytes; wild-type receptor): 2.2 ± 0.1

[Ca]
Hill coefficient (KCNN4/CALM1; activator, inside-out patch clamp): 2.9

O=C(O)CCc1cnn(-c2ccccc2)c1
Kd (USP13 ZnF-UBD domain): > 1000 µM

N#Cc1ccc2[nH]cc(CCCCN3CCN(c4ccc5oc(C(N)=O)cc5c4)CC3)c2c1
Hill coefficient (Sodium-dependent serotonin transporter (SLC6A4, Homo sapiens, UniProt P31645, A169I); [3H]5-HT uptake, inhibitor; COS-7): 1.27 ± 0.23

Cc1nccn1CC1CCc2c(c3ccccc3n2C)C1=O (stereo not drawn)
Hill coefficient (5-hydroxytryptamine receptor 3A (Htr3a, Mus musculus, UniProt P23979, W90X); antagonist, voltage clamp; Xenopus oocytes): -1.3 ± 0.1

c1ccc(C(NCc2cccnc2)(c2ccccc2)c2ccccc2)cc1
Hill coefficient (Potassium voltage-gated channel subfamily KQT member 1 (KCNQ1, Homo sapiens, UniProt P51787); ion current, inhibitor, whole-cell patch clamp; tsA201; tail current, no correction): 0.83

Cc1ccc(NC(=O)/C=C/c2cccs2)cc1
Hill coefficient (Nicotinic acetylcholine receptor alpha9/alpha10; inhibitor; together with: ACh 10 µM): 1.4 ± 0.1

O=C(Nc1cccc2c(=O)cc(-c3nnn[nH]3)oc12)c1ccc(OCCCCc2ccccc2)cc1
Hill coefficient (LRRC8A/LRRC8C (Homo sapiens, UniProt Q8IWT6+Q8TDW0); ion current, inhibitor, whole-cell patch clamp; HCT116 LRRC8 knockout, transfected; -100 mV, LRRC8A/LRRC8C heteromer): 0.74

O=C(O)Cc1nc2ccccc2o1
Kd (USP13 ZnF-UBD domain): 278 µM

CC[C@@H]1[C@H](F)C(=O)N[C@@H]1COc1nccc2cc(C(N)=O)c(OC)cc12
IC50 (Serine/threonine-protein kinase 3 (STK3, Homo sapiens, UniProt Q13188); ATP probe binding, KiNativ profiling, item: MST2 Lys1 probe site; THP-1 cell lysate): > 5 µM

Nc1nc2c(ncn2[C@@H]2O[C@@H]3COP(=O)(O)O[C@H]3[C@H]2O)c(=O)[nH]1
Hill coefficient (Cone cGMP-gated channel (Morone saxatilis, UniProt Q3I0N1+Q3I0N2); channel current, agonist, suction electrode; cone outer segments; together with: 5 µM Ca2+): 2.19 ± 0.39

For quick reference, copied from above:
[Ca]
Hill coefficient (KCNN4/CALM1; activator, inside-out patch clamp): 2.9
